Measurements collected from several papers.
Compare with care: the assays were run in different laboratories.
Target: Hepatocyte growth factor receptor (MET, Homo sapiens, UniProt P08581)
Chain of UniProt P08581 (whole entry, looked up): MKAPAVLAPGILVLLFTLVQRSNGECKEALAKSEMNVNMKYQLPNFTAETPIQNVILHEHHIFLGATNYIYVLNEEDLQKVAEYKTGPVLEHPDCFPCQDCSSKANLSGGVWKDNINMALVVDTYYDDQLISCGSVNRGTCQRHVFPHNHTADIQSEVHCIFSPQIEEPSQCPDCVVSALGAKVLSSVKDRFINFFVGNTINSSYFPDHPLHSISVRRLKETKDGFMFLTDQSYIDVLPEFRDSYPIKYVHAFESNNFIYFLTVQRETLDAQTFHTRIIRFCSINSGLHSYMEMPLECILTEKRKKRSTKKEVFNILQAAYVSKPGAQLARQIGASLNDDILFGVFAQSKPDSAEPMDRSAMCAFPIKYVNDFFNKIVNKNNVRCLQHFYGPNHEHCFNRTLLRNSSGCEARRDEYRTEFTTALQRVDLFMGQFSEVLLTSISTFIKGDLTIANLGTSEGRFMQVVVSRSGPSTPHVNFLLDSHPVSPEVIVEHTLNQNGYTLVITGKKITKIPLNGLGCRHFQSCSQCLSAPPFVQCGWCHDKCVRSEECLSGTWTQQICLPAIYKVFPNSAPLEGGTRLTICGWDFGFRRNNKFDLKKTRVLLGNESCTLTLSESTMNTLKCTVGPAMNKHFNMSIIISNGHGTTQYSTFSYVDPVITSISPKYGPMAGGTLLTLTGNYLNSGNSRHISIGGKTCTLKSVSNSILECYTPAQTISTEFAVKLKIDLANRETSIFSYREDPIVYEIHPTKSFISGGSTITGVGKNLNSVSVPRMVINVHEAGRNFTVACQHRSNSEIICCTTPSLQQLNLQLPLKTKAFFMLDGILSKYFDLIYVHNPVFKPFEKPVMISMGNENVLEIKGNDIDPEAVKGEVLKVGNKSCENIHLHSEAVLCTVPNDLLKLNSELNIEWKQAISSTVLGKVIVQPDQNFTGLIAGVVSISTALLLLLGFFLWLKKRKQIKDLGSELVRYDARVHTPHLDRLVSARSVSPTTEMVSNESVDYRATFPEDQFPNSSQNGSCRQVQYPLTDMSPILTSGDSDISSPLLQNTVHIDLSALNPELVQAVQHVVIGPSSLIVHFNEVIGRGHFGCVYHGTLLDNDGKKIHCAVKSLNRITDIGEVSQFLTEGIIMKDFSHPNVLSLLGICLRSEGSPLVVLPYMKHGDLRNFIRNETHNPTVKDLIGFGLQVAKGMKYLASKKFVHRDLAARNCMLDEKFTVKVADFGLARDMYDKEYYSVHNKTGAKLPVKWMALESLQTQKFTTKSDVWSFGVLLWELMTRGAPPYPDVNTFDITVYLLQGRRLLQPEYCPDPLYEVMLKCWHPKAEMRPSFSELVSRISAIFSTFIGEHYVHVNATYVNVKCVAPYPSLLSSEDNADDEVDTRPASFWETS

Cc1cccc(O[C@H]2CCC[C@@H](C(C)CNCc3ccncc3)C2)c1 (relative stereo)  inhibition (kinase activity, kinome panel screening; 1 µM): -1%
O=c1c(-c2ccc(Cl)c(CN3CCOCC3)c2)coc2cc(O)ccc12  remaining activity (enzyme activity, inhibitor; 1 µM): 111%
NC(=O)C[C@H]1CCc2sc3ncnc(O[C@H]4CC[C@H](N5CCOCC5)CC4)c3c21  inhibition (enzyme activity, inhibitor; 10 µM): -8%
O=C(Cc1ccc(OCc2ccccc2)cc1)NC1(C(=O)O)CCN(C(=O)c2ccc(-c3cccc(Cl)c3)cc2)CC1  activity vs control (enzyme activity, inhibitor; 10 µM): 144%
Cc1[nH]nc2c1N=C(c1ccccc1Cl)c1cnc(N3CCOCC3)cc1N2  inhibition (enzyme activity, inhibitor; 0.5 µM): 5.1%
Cc1cnc2nc1Nc1cccc(c1)COC/C=C/COCc1cc(ccc1OCCN1CCOCC1)N2  percent of control (concentration not given): 72%
O=C(Nc1ccc(Oc2ncnc3[nH]cc(-c4ccccc4)c23)c(F)c1)c1c2n(n(-c3cc(F)ccc3F)c1=O)CCCC2  inhibition (enzyme activity, inhibitor; 0.5 µM): 94%
COc1c(OCCCN2CCOCC2)ccc2c1N=C(NC(=O)c1cnc(N)nc1)N1CCN=C21  remaining activity (kinase activity, inhibitor; 1 µM; baseline: untreated control): 117%
CCn1cc(C(=O)O)c(=O)c2c(N)c(F)c(NC3CCCCC3)cc21  inhibition (kinase activity; 0.1 µM, with: ATP at Km): 1.2%
C=CC(=O)Nc1cccc(-c2cnc3[nH]cc(C(=O)NC(C)(C)C)c3n2)c1  inhibition (enzyme activity, inhibitor; 0.1 µM): 6%
COc1ccc(O)cc1-c1c[nH]c2ncc(-c3cncc(C(=O)N(C)C)c3)cc12  inhibition (binding, competition with immobilised ligand; 0.2 µM): 11.8%

Some of these lines once more:
C=CC(=O)Nc1cccc(-c2cnc3[nH]cc(C(=O)NC(C)(C)C)c3n2)c1  inhibition (enzyme activity, inhibitor; 0.1 µM): 6%
